Experimental data of several laboratories.
Each line is one published result; not all experiments were run side by side. Several values in a cell are separate wells, animals, samples, runs or records. ± marks the error that the study gave.
UniProt P11678, sequence (whole entry, looked up): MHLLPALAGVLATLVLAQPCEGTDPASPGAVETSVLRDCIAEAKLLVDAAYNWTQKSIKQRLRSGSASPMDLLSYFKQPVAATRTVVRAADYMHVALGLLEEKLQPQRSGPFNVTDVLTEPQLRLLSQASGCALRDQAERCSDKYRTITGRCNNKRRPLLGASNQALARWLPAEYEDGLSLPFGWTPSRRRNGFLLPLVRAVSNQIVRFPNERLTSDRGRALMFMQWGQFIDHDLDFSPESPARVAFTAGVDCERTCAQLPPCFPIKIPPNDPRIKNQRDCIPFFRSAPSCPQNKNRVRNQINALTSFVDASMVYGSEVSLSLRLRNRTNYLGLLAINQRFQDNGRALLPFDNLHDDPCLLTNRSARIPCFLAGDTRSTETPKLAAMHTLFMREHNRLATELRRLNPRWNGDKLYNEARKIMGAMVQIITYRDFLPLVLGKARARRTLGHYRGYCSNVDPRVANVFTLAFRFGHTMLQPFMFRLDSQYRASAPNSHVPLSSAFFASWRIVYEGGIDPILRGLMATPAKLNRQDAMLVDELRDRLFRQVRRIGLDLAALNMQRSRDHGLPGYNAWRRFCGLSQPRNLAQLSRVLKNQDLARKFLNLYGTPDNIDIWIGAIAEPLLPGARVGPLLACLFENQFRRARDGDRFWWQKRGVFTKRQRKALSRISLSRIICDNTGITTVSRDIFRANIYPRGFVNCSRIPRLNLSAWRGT
UniProt P43403, sequence (whole entry, looked up): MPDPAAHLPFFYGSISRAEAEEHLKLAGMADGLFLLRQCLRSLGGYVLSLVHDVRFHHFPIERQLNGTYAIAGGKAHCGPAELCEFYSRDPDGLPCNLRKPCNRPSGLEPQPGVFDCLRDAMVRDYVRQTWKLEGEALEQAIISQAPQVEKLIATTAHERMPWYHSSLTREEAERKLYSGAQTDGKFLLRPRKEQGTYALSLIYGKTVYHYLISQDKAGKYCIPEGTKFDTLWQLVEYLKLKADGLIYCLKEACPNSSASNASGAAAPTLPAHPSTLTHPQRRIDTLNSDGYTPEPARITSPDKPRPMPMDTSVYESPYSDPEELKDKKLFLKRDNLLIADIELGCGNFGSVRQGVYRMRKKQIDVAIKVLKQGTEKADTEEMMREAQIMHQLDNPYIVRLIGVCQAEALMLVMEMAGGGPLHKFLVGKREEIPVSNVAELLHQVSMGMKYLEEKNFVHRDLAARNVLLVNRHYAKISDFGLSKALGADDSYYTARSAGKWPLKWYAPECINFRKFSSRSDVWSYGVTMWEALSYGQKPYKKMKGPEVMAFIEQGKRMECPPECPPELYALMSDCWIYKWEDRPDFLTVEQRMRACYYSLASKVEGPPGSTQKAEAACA
UniProt P36897, sequence (whole entry, looked up): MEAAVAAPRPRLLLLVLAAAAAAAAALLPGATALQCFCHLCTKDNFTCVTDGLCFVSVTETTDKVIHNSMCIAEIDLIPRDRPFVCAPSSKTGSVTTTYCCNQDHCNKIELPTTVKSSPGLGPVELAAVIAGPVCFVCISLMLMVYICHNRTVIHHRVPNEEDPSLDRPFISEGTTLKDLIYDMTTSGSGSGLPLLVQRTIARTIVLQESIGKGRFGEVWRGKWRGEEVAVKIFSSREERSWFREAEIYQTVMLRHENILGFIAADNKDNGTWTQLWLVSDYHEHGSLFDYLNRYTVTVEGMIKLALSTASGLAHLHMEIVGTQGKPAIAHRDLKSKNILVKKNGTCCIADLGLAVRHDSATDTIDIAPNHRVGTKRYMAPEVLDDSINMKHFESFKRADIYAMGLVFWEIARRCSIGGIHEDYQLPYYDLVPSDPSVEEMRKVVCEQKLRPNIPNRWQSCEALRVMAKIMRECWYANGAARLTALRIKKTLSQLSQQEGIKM
UniProt Q16566, sequence (whole entry, looked up): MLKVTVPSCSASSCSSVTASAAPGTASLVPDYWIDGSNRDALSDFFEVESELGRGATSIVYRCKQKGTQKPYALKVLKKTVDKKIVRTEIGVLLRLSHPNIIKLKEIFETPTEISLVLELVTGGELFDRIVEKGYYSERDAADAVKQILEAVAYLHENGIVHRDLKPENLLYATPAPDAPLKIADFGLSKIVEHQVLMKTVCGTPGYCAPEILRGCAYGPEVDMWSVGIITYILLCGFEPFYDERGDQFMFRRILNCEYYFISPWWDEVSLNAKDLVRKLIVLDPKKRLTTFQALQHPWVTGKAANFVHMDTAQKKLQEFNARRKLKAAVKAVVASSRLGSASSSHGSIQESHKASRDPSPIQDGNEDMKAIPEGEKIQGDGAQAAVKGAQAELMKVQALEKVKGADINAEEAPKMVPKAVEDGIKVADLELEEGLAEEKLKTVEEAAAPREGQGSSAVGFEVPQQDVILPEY
UniProt P80192, sequence (whole entry, looked up): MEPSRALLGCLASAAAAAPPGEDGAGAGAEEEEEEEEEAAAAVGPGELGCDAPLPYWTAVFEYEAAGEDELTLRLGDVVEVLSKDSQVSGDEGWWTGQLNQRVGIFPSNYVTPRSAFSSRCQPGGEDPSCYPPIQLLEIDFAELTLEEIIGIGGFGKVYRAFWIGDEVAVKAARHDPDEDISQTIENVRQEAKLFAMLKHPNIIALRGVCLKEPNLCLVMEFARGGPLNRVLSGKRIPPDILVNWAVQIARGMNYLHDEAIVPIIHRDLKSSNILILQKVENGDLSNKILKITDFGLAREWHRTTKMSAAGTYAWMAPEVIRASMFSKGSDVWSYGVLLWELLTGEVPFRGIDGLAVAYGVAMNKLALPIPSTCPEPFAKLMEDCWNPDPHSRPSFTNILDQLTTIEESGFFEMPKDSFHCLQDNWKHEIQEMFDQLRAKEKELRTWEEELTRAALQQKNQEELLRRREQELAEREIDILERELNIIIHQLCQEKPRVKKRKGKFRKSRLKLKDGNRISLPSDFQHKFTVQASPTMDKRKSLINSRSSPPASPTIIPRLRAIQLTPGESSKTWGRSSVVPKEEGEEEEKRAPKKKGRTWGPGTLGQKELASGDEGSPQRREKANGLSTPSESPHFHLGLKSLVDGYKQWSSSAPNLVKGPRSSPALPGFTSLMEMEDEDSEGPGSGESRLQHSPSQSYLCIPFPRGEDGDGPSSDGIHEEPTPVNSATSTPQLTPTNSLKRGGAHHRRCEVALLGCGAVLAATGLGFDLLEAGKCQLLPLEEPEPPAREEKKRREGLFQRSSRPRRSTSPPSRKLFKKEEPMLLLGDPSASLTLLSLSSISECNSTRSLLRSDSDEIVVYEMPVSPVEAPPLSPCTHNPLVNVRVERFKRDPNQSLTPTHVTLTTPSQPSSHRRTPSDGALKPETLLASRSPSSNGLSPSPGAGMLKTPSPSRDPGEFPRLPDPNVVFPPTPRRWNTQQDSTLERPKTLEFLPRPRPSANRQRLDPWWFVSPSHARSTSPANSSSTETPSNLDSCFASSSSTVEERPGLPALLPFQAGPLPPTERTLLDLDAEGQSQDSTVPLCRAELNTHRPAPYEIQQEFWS
UniProt P42685, sequence (whole entry, looked up): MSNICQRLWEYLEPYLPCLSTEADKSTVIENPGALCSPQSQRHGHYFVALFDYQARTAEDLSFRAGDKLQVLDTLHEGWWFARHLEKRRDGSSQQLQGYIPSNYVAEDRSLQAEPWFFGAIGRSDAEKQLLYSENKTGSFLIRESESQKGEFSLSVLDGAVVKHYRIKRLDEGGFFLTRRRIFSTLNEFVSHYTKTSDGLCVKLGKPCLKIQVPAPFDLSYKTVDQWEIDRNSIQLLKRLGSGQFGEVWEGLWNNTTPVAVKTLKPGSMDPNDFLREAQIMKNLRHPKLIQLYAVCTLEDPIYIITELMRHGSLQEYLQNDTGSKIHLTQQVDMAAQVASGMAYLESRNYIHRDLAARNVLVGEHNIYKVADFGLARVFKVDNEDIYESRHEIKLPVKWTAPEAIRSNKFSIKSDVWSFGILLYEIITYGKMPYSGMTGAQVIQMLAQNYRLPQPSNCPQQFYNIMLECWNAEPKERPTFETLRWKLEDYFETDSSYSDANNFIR
UniProt Q02763, sequence (whole entry, looked up): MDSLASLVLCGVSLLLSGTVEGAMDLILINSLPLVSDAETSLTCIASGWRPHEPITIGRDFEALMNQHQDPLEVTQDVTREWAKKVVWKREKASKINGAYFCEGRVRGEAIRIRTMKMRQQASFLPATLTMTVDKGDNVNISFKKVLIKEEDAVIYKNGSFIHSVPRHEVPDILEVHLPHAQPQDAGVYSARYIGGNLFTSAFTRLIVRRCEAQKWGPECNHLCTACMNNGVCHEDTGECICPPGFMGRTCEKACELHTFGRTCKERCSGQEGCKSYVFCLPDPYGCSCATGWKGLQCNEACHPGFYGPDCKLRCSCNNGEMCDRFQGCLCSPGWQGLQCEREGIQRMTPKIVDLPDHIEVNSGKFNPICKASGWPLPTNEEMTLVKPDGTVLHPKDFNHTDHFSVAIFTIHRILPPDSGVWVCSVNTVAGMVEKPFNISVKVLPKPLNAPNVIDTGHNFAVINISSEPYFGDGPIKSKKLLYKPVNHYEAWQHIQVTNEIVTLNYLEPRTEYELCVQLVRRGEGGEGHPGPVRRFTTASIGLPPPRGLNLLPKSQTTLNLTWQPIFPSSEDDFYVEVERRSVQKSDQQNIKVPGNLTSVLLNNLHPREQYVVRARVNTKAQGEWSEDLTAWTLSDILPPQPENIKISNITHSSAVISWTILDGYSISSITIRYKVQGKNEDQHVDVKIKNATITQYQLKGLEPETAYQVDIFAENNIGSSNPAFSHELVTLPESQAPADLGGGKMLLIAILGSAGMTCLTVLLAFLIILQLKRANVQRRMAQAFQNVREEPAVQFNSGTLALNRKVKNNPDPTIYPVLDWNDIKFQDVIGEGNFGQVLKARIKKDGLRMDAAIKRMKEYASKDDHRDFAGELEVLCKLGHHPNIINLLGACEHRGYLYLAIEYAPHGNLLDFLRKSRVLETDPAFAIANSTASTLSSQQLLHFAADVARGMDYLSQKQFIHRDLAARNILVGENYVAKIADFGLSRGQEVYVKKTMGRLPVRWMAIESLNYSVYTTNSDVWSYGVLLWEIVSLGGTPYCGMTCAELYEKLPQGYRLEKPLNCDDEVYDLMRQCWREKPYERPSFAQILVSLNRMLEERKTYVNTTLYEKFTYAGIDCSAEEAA

Structure (SMILES)	tested on	test	setting	scale	quantity	result
O=C1NC(=O)/C(=C/c2ccc(-c3ccc(F)cc3O)o2)S1	AMPK	enzyme activity	10 µM	–	remaining activity	39%
NC/C(=C\F)COc1cccc(Cn2c(=S)[nH]c(=O)c3[nH]cnc32)c1	Eosinophil peroxidase (Homo sapiens, UniProt P11678)	H2O2 electrode	20 µM	reference: control	remaining activity	46.3% and 34.8%
C=CC(=O)N1CCC[C@@H](n2nc(-c3ccc(Oc4ccccc4)cc3)c3c(N)ncnc32)C1	Tyrosine-protein kinase ZAP-70 (ZAP70, Homo sapiens, UniProt P43403)	–	0.1 µM	–	remaining activity	311%
O=C(NC1CCC1)c1ccc2nc(-c3cccc(NS(=O)(=O)NCCN4CCCCC4)c3)cn2c1	Calcium/calmodulin-dependent protein kinase type IV (CAMK4, Homo sapiens, UniProt Q16566)	enzyme activity	10 µM	–	remaining activity	100%
Nc1ncn([C@H]2C[C@H](O)[C@@H](CO)O2)c(=O)n1	THP-1	pyroptotic LDH release	2 µM, 40 min, with: LPS then nigericin	–	inhibition	-12.6%
COc1cc(F)ccc1-c1ncnc(Nc2cccc(C[S@](C)(=N)=O)c2)n1	TGF-beta receptor type-1 (TGFBR1, Homo sapiens, UniProt P36897)	kinase activity	10 µM, with: 10 µM ATP	–	remaining activity	98%
COc1cc(Nc2ncc3c(n2)-c2ccc(Cl)cc2C(c2c(F)cccc2OC)=NC3)ccc1C(=O)O	TYRO3	kinase activity	1 µM	–	remaining activity	49%
Cc1cc(Nc2cc(N3CCN(C)CC3)nc(Sc3ccc(NC(=O)C4CC4)cc3)n2)[nH]n1	Mitogen-activated protein kinase kinase kinase 9 (MAP3K9, Homo sapiens, UniProt P80192)	kinase activity, KinaseProfiler	0.03 µM, species human	reference: control	remaining activity	70%
COc1cc(-c2cncc3c2CN(C)Cc2cc(N4CCNCC4)ccc2-3)cc(OC)c1OC	Angiopoietin-1 receptor (TEK, Homo sapiens, UniProt Q02763)	kinase activity	1 µM, with: ATP 10 µM	reference: DMSO control	remaining activity	94%
O=C(O)c1ccc(Nc2ncc3c(n2)-c2ccc(Cl)cc2C(c2c(F)cccc2F)=NC3)cc1	Flt1(h)	kinase activity	1 µM	–	remaining activity	65%
c1ccc(-c2ccc(C(c3ccccc3)n3ccnc3)cc2)cc1 (stereo not drawn)	THP-1	pyroptotic LDH release	2 µM, 40 min, with: LPS then nigericin	–	inhibition	29.9%
COc1ccc(F)cc1C(=O)NCc1ccc(-c2nn([C@@H](C)C(F)(F)F)c(N)c2C(N)=O)cc1	Tyrosine-protein kinase FRK (FRK, Homo sapiens, UniProt P42685)	kinase activity, inhibitor, HotSpot radiometric	100 nM, with: ATP 10 µM	–	remaining activity	98.2 ± 0.1%

A few entries again:
Structure (SMILES)	tested on	test	setting	scale	quantity	result
COc1cc(Nc2ncc3c(n2)-c2ccc(Cl)cc2C(c2c(F)cccc2OC)=NC3)ccc1C(=O)O	TYRO3	kinase activity	1 µM	–	remaining activity	49%
